Published values pooled from the literature.
Lines come from different studies, so protocols differ. Several values in a cell are separate wells, animals, samples, runs or records. ± gives the spread as reported.
Fibroin-modulator-binding protein-1: Fibroin-modulator-binding protein-1 99-193 (Bombyx mori, UniProt Q5FBS0)
HLA class I histocompatibility antigen, A alpha chain allele A*01:01: HLA class I histocompatibility antigen, A alpha chain, allele A*01:01 (Homo sapiens, UniProt P04439)
B1: enzyme (UniProt P0DY30); chain ESPWIGVHFMVYTDKMLDQLAEQLPALSKRGVTHLILEINYHFAYKSHPELAPTNGITVVGAKKFADTARAHHIEIIPQINCLGHQSWKQNNAALLKHYPQFDETPGAYPDNKDIYCRSWCPQHPEVNRVVFALIDELIDAFEAKAFHVGMDEVFLIASEHCERCRGGDPAALFAKAVNDLHGHIVGKRGVQMLMWGDRLLDAEQTGYGKWEASGNGTAPAIDRIPKDIVLCDWHYEKRDRYPSLAVFLDKGFRVWPAGWKKPEAAEAFAAAARGCQNPRLLGYLCTTWGAVEIPNLADWPALLRPIEKIIAP
B2: UGT1A1 (Homo sapiens, UniProt P22309); chain HAGKILLIPVDGSHWLSMLGAIQQLQQRGHEIVVLAPDASLYIRDGAFYTLKTYPVPFQREDVKESFVSLGHNVFENDSFLQRVIKTYKKIKKDSAMLLSGCSHLLHNKELMASLAESSFDVMLTDPFLPCSPIVAQYLSLPTVFFLHALPCSLEFEATQCPNPFSYVPRPLSSHSDHMTFLQRVKNMLIAFSQNFLCDVVYSPYATLASEFLQREVTVQDLLSSASVWLFRSDFVKDYPRPIMPNMVFVGGINCLHQNPLSQEFEAYINASGEHGIVVFSLGSMVSEIPEKKAMAIADALGKIPQTVLWRYTGTRPSNLANNTILVKWLPQNDLLGHPMTRAFITHAGSHGVYESICNGVPMVMMPLFGDQMDNAKRMETKGAGVTLNVLEMTSEDLENALKAVINDKSYKENIMRLSSLHKDRPVEPLDLAVFWVEFVMRHKGAPHLRPAAHDLTWYQYHSLDVIGFLLAVVLTVAFITFKCCAYGYRKCLGKKGRVKKAHKSKTH
B3: enzyme Y27L (Thermoplasma volcanium, UniProt Q978S7); chain MAFHGLVKYSDITVEGLPKIQYHGFIGNNRTAMLVAMNGYIDWGCLPNFNSNAVFSSILDKNKGGYFAIFPSDTTDVYVDQYYKEMTNVLVTEFVKNGKIILRLTDFMPDSEYGKISFPEVHRFVESFSEPIDITIDFKPTFNYGQDKPIIEKDQHGFIFTTDKESIGISSEFPLRKNSDRIFGNVKMEPRSSSWIIALYGIHHLFRTTDYKSYLRLQETTDYWRKWASSSSYAGAYHSMVMRSALALKVLFYEPTGLMVAAPTASLPEAIGGERNWDYRFTWIRDTAYVIEALSSIGYKYEATEFLYDMMDMITRDNRIRTIYSIDDSNDLEERIIDYEGYRGSRPVRIGNKAVDQLQIDQYGSIVRAIHSMAKAGGIVNSYLWDFVEQVMAKIEYLWKYPDSSIWEFRTEPKQYVYSKVMSWAAFDSAISMAKDLGLSAPIKQWKSIQDEIKKEVLEKGFDTDTNSFVQYYGSKNIDAALLRLPILGFIPANDEKFLGTLSRIEKELMVDGYLFKRYREDDGLKGDEGSFLMLTFWYIEDLILMKRLKKAREVLESVLEKANHLGLYSEEIDEKSGDFLGNFPQALSHLGVIRVAPKLEEALLKRTSKINS
B4: CYP4F3 A27G/C46R/I34V/M14V/R49Q/W12G (Homo sapiens, UniProt Q08477); chain MALLLAVFLLGPVAASPWLLLLLVGGSWLLARVLAWTYTFYDNCRRLQCFPQPPKRNWFLGHLGLVTPTEQGMRVLTQLVATYPQGFKVWMGPIFPVIRFCHPNIIRSVINASAAIVPKDKVFYSFLKPWLGDGLLLSAGEKWSRHRRMLTPAFHFNILKPYMKIFNESVNIMHAKWQLLASEGSARLDMFEHISLMTLDSLQKCVFSFDSHCQEKPSEYIAAILELSALVTKRHQQILLYIDFLYYLTPDGQRFRRACRLVHDFTDAVIQERRRTLPSQGVDDFLQAKAKSKTLDFIDVLLLSKDEDGKKLSDEDIRAEADTFMFEGHDTTASGLSWVLYHLAKHPEYQERCRQEVQELLKDREPKEIEWDDLAQLPFLTMCIKESLRLHPPVPAVSRCCTQDIVLPDGRVIPKGIICLISVFGTHHNPAVWPDPEVYDPFRFDPKNIKERSPLAFIPFSAGPRNCIGQAFAMAEMKVVLGLTLLRFRVLPDHTEPRRKPELVLRAEGGLWLRVEPLS
Chain of UniProt P09546 (whole entry, looked up): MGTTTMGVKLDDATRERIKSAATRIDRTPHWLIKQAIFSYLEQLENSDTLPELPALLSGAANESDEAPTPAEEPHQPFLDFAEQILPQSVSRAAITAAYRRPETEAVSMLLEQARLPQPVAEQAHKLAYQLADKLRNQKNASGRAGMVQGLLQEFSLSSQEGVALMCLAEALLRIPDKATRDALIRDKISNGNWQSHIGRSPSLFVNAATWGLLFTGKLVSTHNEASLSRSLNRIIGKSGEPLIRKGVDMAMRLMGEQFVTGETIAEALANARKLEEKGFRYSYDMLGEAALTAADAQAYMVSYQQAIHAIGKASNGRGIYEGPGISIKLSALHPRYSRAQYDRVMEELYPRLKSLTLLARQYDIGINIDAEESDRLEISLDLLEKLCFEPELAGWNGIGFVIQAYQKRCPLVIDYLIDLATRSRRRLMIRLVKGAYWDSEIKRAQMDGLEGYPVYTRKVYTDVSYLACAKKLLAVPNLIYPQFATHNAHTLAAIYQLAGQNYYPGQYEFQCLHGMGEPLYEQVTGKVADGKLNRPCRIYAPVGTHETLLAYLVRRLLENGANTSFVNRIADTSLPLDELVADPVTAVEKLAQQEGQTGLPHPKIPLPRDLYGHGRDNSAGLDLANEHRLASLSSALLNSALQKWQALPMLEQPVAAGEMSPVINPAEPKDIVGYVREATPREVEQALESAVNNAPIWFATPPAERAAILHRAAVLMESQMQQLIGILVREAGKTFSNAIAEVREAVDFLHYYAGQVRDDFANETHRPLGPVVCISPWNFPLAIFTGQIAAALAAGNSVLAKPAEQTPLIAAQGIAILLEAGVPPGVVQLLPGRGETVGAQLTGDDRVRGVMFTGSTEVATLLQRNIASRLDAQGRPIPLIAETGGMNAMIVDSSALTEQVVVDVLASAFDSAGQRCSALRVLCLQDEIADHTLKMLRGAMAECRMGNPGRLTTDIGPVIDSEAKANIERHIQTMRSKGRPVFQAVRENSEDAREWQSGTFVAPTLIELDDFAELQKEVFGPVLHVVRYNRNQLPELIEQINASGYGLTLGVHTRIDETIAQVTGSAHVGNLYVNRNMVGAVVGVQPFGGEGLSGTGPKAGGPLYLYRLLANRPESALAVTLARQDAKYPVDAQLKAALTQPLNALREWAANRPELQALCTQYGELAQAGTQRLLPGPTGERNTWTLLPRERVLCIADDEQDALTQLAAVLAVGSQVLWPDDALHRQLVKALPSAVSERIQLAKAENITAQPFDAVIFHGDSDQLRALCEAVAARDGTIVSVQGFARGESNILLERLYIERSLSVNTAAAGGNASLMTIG

| Substance | tested on | test | test system | conditions | how to read | measurement | result |
| --- | --- | --- | --- | --- | --- | --- | --- |
| enzyme (Bacteroides fragilis, UniProt Q5LAD6) | C[C@@H]1O[C@@H](Oc2ccc([N+](=O)[O-])cc2Cl)[C@@H](O)[C@H](O)[C@@H]1O | steady-state kinetics |  | pH 8.4, 40 °C |  | Km | 552 µM |
| GACCGACCGACC (dsDNA) | Fibroin-modulator-binding protein-1 | ITC | double-stranded DNA, one strand shown |  |  | Kd | 12.8 µM |
| enzyme (Nicotiana tabacum, UniProt A0A1S4B614) | O=C(O)[C@]1(O)C[C@@H](O)[C@@H](O)[C@H](O)C1 | steady-state kinetics |  | pH 7.5, 37 °C |  | Km | 350 µM |
| enzyme (UniProt A0A097IUD8) | Nc1ncnc2c1ncn2[C@@H]1O[C@H](COP(=O)(O)OP(=O)(O)O)[C@@H](O)[C@H]1O | steady-state kinetics |  | pH 6, 25 °C, together with: 16 mM PEP |  | Km | 100 µM |
| RLAQWISQA | Jurkat T cells expressing 1G4 TCR | NFAT-eGFP reporter, flow cytometry | peptide | concentration not given, HLA-A*02:01 NY-ESO system |  | reporter activation | 21.6% |
| B1 (enzyme) | CC(=O)N[C@H]1[C@H](Oc2ccc([N+](=O)[O-])cc2)O[C@H](CO)[C@@H](O[C@@H]2O[C@H](CO)[C@H](O)[C@H](O)[C@H]2O)[C@@H]1O | steady-state kinetics |  | pH 6, 50 °C |  | Km | 1780 µM |
| enzyme (UniProt A0A4R3LQ44) | O=C(O)[C@H](O)[C@@H](O)[C@H](O)[C@H](O)CO | steady-state kinetics |  | pH 8, 37 °C |  | Km | 6500 µM |
| B2 (UGT1A1) | C[C@]12CC[C@@H]3c4ccc(O)cc4CC[C@H]3[C@@H]1CC[C@@H]2O | steady-state kinetics |  | 37 °C, not purified |  | Km | 18 µM |
| TSTVQLIMQL | HLA class I histocompatibility antigen, A alpha chain allele A*01:01 | conformational ELISA | peptide | concentration not given | relative to: positive control peptide, direction not given | binding score | 0.6% and 0.5% |
| B3 (enzyme Y27L) | OC[C@H]1O[C@H](O[C@H]2O[C@H](CO)[C@@H](O)[C@H](O)[C@H]2O)[C@H](O)[C@@H](O)[C@@H]1O | steady-state kinetics |  | pH 3.7, 30 °C |  | Km | 46500 µM |
| PFGSLLDY | HLA class I histocompatibility antigen, A alpha chain allele A*01:01 | conformational ELISA | peptide | concentration not given | relative to: positive control peptide, direction not given | binding score | 0.1% |
| putA (Escherichia coli, UniProt P09546) | COC1=C(OC)C(=O)C(CC=C(C)C)=C(C)C1=O | steady-state kinetics |  | pH 7.4, 20 °C, together with: proline 200 mM |  | Km | 110 µM |
| GCTAGCTAGCTA (dsDNA) | Fibroin-modulator-binding protein-1 | ITC | double-stranded DNA, one strand shown |  |  | Kd | 5.46 ± 0.561 µM |
| B4 | CCCCC/C=C\C/C=C\C/C=C\C/C=C\CCCC(=O)O | steady-state kinetics |  | pH 7.4, together with: arachidonic acid |  | Km | 29 µM |
| enzyme (Chlorobaculum tepidum, UniProt Q8KC02) | CC(=O)C(=O)O | steady-state kinetics |  | pH 7.5, 30 °C |  | Km | 600 µM |
